Measurements of several laboratories.
Every numbered part comes from another study and shows a few of its results, in no order. Substitutions count along the parent as printed.

Series 1
Target: CCNA1, cyclin fold, Cln2 fusion (human)
Method: yeast growth competition, sequencing
Medium: yeast
Setting: weak parent motif
Relative to: not given
Reading: higher = stronger binding
Starting sequence: SLBP docking peptide (human); ARYKRKLLINDFG
| Variant | normalised enrichment score |
| --- | --- |
| I9W | 0.405 |
| I9M | 0.558 |
| R2K | 0.361 |
| A1N | 0.348 |
| F12P | 0.377 |
| F12K | 0.0412 |
| D11Q | 0.341 |
| K4V | 0.454 |
| F12S | 0.412 |
| F12N | 0.238 |
| D11T | 0.486 |
| G13Q | 0.251 |
| I9C | 0.443 |
| Y3P | 0.181 |
| F12E | 0.277 |
| K4D | 0.193 |

Series 2
Target: RNA binding protein fox-1 homolog 2, RRM domain, GST-SBP tag (RBFOX2, Homo sapiens, UniProt O43251-10, residues 100-194)
Method: RNA Bind-n-Seq
Form: RNA
Medium: in vitro
Tested at: 365 nM
Setting: natural RNA segment, single round, ends assumed
Relative to: no-protein control
Reading: higher = stronger binding
Constant ends, left off below: GGGAGUUCUACAGUCCGACGAUC … UGGAAUUCUCGGGUGCCAA
Target sequence (chain): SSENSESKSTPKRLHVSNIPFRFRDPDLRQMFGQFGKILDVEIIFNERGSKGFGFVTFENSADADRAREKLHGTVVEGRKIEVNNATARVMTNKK
| Strand | RBNS enrichment (R) |
| --- | --- |
| UCCUAGUUGUCCAGGGAUAAAAAUCAUAUAGACCAAUUGAAGCAUGAACGUGGAUUGUAUUUAAGACAUAAACAAAGACAUUGACAGCAAUUCAUGGUUCAAGUAUUAAG | 1.75 |
| UUGUCCUCAGGGCUACAGCAGUAGGGAGGUCAGUGCUUCGUGCCUCGAUUGAAGGUGACCUCUGCCCCAGAUAGGUGGUGCCAGUGGCUUAUUAAUUCCGAUACUAGUUU | 2.6 |
| GGUUCUAACCUAGUGUGUUAAUUUAUCUGAAUUUGGAUUUUUAAAAAGUAAUAAAAAGUUAAAUGUAUUCCUUUGGAUUCCUUAUUUCUUUCCUUUUUGAAACAUGAACC | 0.859 |
| GCUUCCCCGAAAUGGUAUCACACAGGUCAUCCAUGAAUCGCUGUAGUGGCUAGGGGUAUGUGGGACUGCGGCACUGGACUGGGUGCUUCAUGGUGGGCCCUGUGCUCUGU | 0.637 |
| CAAGGCCUCCUCUUCCCAGGGGCUGCCAAGUCCUGGCCCUGGCCCUGGCAUAUCACCCCGCACUGUGGGGCCAGGCACCACUAGCCUGGCUCAAAUAUUCCCCAGGGAGA | 0.312 |
| UUAAGAUUAAAAGCUAGAAAUCAGAUGGUCUGCUUCUGCUAUGUCUGUAGACCGAUUGGAUGUAUGUGGAGGCUGGCCAGAUGGCAACUGAUGACUUGUGUGCAAACAAG | 0.481 |
| UGACCCUGAGCUUCUGCCAGCCUGGAGGACCCGUGCUAAGUGGACCACGCCUUCCCGCUCGGCGGCAAAGGUGCUGACAUCUAUGUGCUAGGCUGCCUCAUCACGCCACU | 0.204 |
| AGCCCAGACAACACAGGCAUGGCCUGCGUGCCCUCCCAGCAUCUGCUGCGAUGGCCUCAAGGCCUCUCCAGUCCCCUGCUGCACCAUGCCACUCAGAGCCCCUGAGUGAG | 0.265 |

Series 3
Target: Prothrombin, mature alpha-thrombin (F2, Homo sapiens, UniProt P00734)
Method: aptamer microarray, sandwich
Form: DNA with 2'F-ANA
Medium: in vitro
Tested at: 200 nM
Setting: whole 15-mer aptamer, many near background
Together with: Cy3 exosite-II aptamer, 400 nM
Reading: higher = stronger binding
Strand: GGTTGGTGTGGTTGG
| Modification | mean fluorescence intensity [a.u.] |
| --- | --- |
| 2'F-ANA at 1 2 3 4 5 6 9 11 12 13 14 15 | 50.1 |
| 2'F-ANA at 1 3 6 8 9 10 11 14 | 77.8 |
| 2'F-ANA at 1 3 4 5 6 11 12 14 15 | 48 |
| 2'F-ANA at 3 4 5 6 7 8 12 14 15 | 71.8 |
| 2'F-ANA at 1 4 5 6 7 8 11 14 15 | 109 |
| 2'F-ANA at 2 3 4 7 9 10 11 12 14 | 175 |
| 2'F-ANA at 2 4 5 6 7 10 14 15 | 265 |
| 2'F-ANA at 3 5 6 7 8 9 10 12 13 15 | 63.5 |
| 2'F-ANA at 1 3 4 5 6 11 | 54.9 |
| 2'F-ANA at 1 2 3 4 5 9 10 14 | 95.8 |
| 2'F-ANA at 1 3 5 7 8 9 10 11 13 15 | 48.8 |
| 2'F-ANA at 1 4 6 8 10 11 13 | 50.3 |
| 2'F-ANA at 2 3 5 7 12 15 | 227 |
| 2'F-ANA at 2 3 6 8 9 10 11 12 13 14 15 | 191 |
| 2'F-ANA at 1 2 6 8 9 10 12 14 | 46.5 |
| 2'F-ANA at 1 3 5 6 11 13 14 15 | 46 |
| 2'F-ANA at 4 8 11 | 367 |
| 2'F-ANA at 2 7 8 10 12 | 209 |
| 2'F-ANA at 5 6 8 11 12 13 14 | 49.2 |
| 2'F-ANA at 1 3 4 5 7 11 12 13 | 89.4 |
| 2'F-ANA at 2 3 5 9 15 | 103 |
| 2'F-ANA at 2 4 5 7 11 13 14 15 | 45 |
| 2'F-ANA at 2 4 5 6 7 11 14 | 46.9 |
| 2'F-ANA at 2 3 4 5 7 10 11 14 15 | 50 |

Series 4
Target: Protein C-ets-1 (ETS1, Homo sapiens, UniProt P14921, residues 1-441, K379A, full length assumed)
Sequence of UniProt P14921 (whole entry, unmodified, looked up): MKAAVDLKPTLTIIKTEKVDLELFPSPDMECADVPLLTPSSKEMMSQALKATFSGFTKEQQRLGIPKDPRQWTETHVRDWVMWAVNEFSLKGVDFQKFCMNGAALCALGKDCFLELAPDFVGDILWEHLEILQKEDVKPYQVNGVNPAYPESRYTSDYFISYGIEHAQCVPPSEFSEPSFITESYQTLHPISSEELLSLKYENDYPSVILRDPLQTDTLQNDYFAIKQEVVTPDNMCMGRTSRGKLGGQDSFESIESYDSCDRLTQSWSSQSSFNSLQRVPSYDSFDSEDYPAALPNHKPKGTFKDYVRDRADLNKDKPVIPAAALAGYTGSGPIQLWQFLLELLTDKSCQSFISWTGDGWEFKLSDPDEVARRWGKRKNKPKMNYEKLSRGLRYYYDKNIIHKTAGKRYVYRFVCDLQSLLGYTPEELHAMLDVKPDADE
Method: protein-binding microarray
Form: double-stranded DNA, one strand shown
Medium: in vitro
Tested at: not given
Setting: k-mer, scored over probes, only values ≥0.25
Reading: higher = stronger binding
| Strand | E-score |
| --- | --- |
| ATATACCG | 0.341 |
| CGGAAGTC | 0.402 |
| TAGTACTA | 0.258 |
| CCGGAGCG | 0.277 |
| AATTTTCC | 0.281 |
| GTCGCGAC | 0.311 |
| TCCCGGGA | 0.296 |
| GGGAATAA | 0.278 |
| CCGGCGGC | 0.316 |
| ATATTTAC | 0.274 |
| CACCGACA | 0.42 |
| AACCGGAG | 0.345 |
| TAATCCAA | 0.251 |
| CCGGGTGC | 0.25 |
| CGGAAACA | 0.327 |
| ACTACAAT | 0.314 |
| ATATCCGG | 0.403 |
| CCCGCCGC | 0.342 |
| ATACCGGG | 0.39 |
| AATAACCG | 0.262 |
| CCTGTGTA | 0.265 |
| CCGGAAGG | 0.356 |
| CGGGACAG | 0.289 |
| CCCACCCC | 0.454 |

Series 5
Target: RING finger protein unkempt homolog, zinc fingers 1-6, SBP tag (UNK, Homo sapiens, UniProt Q9C0B0, residues 30-357)
Sequence of UniProt Q9C0B0 (30-357, looked up): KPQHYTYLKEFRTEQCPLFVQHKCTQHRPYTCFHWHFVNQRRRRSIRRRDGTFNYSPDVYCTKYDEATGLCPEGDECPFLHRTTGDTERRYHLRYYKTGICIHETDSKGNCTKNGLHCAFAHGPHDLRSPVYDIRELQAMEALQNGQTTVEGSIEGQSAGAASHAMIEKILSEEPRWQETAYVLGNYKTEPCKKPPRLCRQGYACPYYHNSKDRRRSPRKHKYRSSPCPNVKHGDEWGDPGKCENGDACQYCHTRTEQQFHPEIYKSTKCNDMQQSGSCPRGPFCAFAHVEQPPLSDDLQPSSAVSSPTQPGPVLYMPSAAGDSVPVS
Method: RNA Bind-n-Seq
Form: RNA
Medium: in vitro
Tested at: 100 nM
Setting: RNA with constant flanks, ends assumed
Relative to: input RNA pool
Reading: higher = stronger binding
| Strand | bound/input enrichment |
| --- | --- |
| GGGAGUUCUACAGUCCGACGAUCAUUCAAACCUGUGGUACCAUGGCCUCAUGUUGAAGGAGCCGAAGUGGACUCCGAGUCUAUCCGAAGAAUAAACAAGGCCAAAAAUGAACAAGAGCACCAUGCUGGAGGAGAUUCCCAGAACAACAGAGGAUUGAGCAUCA | 0.143 ratio |
| GGGAGUUCUACAGUCCGACGAUCUAUCUUCCGGAUGAAGCUCUUACACCAAGUGUCACGAGUCUGGAGAACAGAUGGGUUGAGCCGUUGUUCUUAUAAAUCCGUAUCUGUGGAACACAAUCCUUUAUAUAUCAACAUCACAGUCAACAGAGGAUUGAGCAUCA | 0.299 ratio |
| GGGAGUUCUACAGUCCGACGAUCAAUCAGCCGAAUUACAUAAUACUAAAGUUGCAGUUGAAAGAAUAUCCAAGUAUGUGUUGGCCGUUACUAAAAGAAUUACCGCUGUUAUUGCCUUGUAUUUACCGCCCUUGUUUCAGGUUUCAACAGAGGAUUGAGCAUCA | 0.241 ratio |
| GGGAGUUCUACAGUCCGACGAUCCAGUCAUGGAGAAAAACAUAUUAAAAUAAUUUCAUGGCAUUGAUGUUAAUUCCCGUCUAUCCGUUUUAUAAAAGUCCGGAUUCUUAUUCCGGAACAACAGGAAAUGACUGUUAAGGAGAACAACAGAGGAUUGAGCAUCA | 0.319 ratio |

Other studies, line by line
| Molecule | target | assay | system | setting | scale | quantity | result |
| --- | --- | --- | --- | --- | --- | --- | --- |
| PhoQ, residues 284 288 289 292 302 303 NLAAMI | PhoP, residues 12 14 15 18 19 LHHVQ (Escherichia coli, UniProt P23836) | Sort-seq, refers to: YFP reporter | E. coli | PhoQ-PhoP variant library, together with: 10 µM Mg2+ | relative to: high Mg2+ state, higher = stronger signaling | fold induction | 1.17 |

Repeated from above (series 3):
| Modification | mean fluorescence intensity [a.u.] |
| --- | --- |
| 2'F-ANA at 1 2 3 4 5 6 9 11 12 13 14 15 | 50.1 |
| 2'F-ANA at 1 3 6 8 9 10 11 14 | 77.8 |
| 2'F-ANA at 1 3 4 5 6 11 12 14 15 | 48 |
| 2'F-ANA at 3 4 5 6 7 8 12 14 15 | 71.8 |
| 2'F-ANA at 1 4 5 6 7 8 11 14 15 | 109 |
